Measurements pooled from the literature.
Parts stem from different laboratories: compare values within a part only. Values joined by “and” are separate records of one study, mostly repeats; a detail may differ. Positions count from the first letter of the parent shown.

Study 1 — method: RNA Bind-n-Seq; form: RNA; medium: in vitro; concentration: 200 nM; setting: whole 134-nt RNA, ends assumed; added: 150 mM LiCl; relative to: input library; direction: higher = stronger binding; endpoint: log2 enrichment; each molecule: 7-deaza-guanosine replaces G
Target: Fragile X messenger ribonucleoprotein 1, C-terminal low-complexity region (Fmr1, Mus musculus, UniProt P35922)
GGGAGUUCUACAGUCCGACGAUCUACCUGAUCAAUGACAGAGCCUUCUGAGGACAUUCCAAGACAGUAUACAGUCCUGUGGUCUCCUUGGAAAUCCGUCUAGUUAACAUUUCAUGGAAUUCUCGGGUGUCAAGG: -2.07
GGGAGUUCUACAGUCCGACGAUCCUCAAGUCCUGUGCUACACAUCGUAUGUACCGAAUCGGUUUGGAAAAAGGUGGAAAGUAUUAUGUUACGCCGUUCGGAUCUGCACUUCCAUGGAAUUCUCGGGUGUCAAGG: -0.0439
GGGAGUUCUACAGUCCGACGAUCACCAUGCAGGUGGGCAUCUUUGGGAAGUGGGGCCAGGGGGGGAUAGGGAGGGGGGUAACACUUUGGGAACAGGUGGUCCCAGGUCGUUUCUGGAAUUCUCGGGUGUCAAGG: 1.2
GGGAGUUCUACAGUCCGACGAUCUAACUUUAGAGGAGGAUCUGAUGGAUAUGGCAGUGGACGUGGAUUUAGGGAUGGCUAUAAUGGGUAUGGAGGAGGACCUGGAGGUGGCAAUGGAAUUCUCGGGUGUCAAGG: -0.0757
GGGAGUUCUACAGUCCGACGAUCGCAGGAAGUAAAAACAAAUGGAAAUGCUUCGGAUAGUGGCAGGGGUGGGGGUUGCUAAGGAAAGGGUGGGAGGGGAGUGGGUAAAGAGUUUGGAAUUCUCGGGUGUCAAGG: 1.02
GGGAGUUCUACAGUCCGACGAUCCAAGUCCUGUGCUACACAUCGUAUGUACCGAAUCGGGUUUUGGUUUUGGUUUUGGGAAAGUAUUAUGUUACGCCGUUCGGAUCUGCACUUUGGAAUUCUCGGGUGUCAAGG: -1.84
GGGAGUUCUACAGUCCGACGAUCCUGUGCUACACAUCGUAUGUACCGAAUCGGGGAAAAAAGGGGAAAAAAGGGAAAAAAGGGGAAAGUAUUAUGUUACGCCGUUCGGAUCUGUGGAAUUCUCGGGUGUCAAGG: 1.02
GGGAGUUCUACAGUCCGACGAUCCCUCAAGUCCUGUGCUACACAUCGUAUGUACCGAAUCGGGUGGGUGGGGUGGAAAGUAUUAUGUUACGCCGUUCGGAUCUGCACUUCCAGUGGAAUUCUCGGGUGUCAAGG: -1.19

Study 2 — method: universal PBM; form: double-stranded DNA, one strand shown; medium: in vitro; concentration: not given; direction: higher = stronger binding; endpoint: E-score
Target: Sal-like protein 4, full length isoform B (SALL4, Homo sapiens, UniProt Q9UJQ4-2, residues 1-616)
Setting: 8-mer, flanks averaged, mean of replicates
ACAGGCAA: 0.0644
CGTTCTGC: -0.0662
CATCACCA: 0.101
AAACACTA: 0.235
CTTAAGTC: -0.105
ACTTTTCT: 0.165
CGTATACC: -0.245
GACATGGC: -0.132
CCAAATTA: 0.278
CCTCTGCC: -0.163
GAAGTATC: 0.155
CCTGACCC: -0.27
ATATGGGG: 0.116
CGTCTCAG: -0.189
GATTACTA: 0.148
GCCTCCGA: -0.224
AAATGGTG: 0.2
GACCGAAC: -0.158
CGTCTATA: 0.109
CTAATCCC: 0.0526
AGGAATTA: 0.252

Study 3 — target: CCNB2, cyclin fold, Cln2 fusion (human); method: yeast growth competition, sequencing; medium: yeast; setting: weak parent motif; relative to: not given; direction: higher = stronger binding; endpoint: normalised enrichment score
Starting sequence: GMNC docking peptide (human); KNAKRNLSSEFAN; partner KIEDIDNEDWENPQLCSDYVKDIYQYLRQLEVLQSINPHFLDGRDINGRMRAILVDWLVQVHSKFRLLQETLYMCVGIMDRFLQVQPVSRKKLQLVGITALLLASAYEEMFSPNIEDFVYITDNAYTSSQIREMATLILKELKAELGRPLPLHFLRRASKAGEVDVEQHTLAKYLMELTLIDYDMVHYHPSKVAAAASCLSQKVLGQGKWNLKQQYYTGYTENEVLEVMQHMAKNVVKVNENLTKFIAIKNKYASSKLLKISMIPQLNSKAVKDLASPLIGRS
KGAKRNLSSEFAN [N2G]: 0.504
KNAKDNLSSEFAN [R5D]: -0.0726
KNAKRNLSSENAN [F11N]: 0.00798
KNAKRNLSSIFAN [E10I]: 0.0372
KNAKRNLSSEFPN [A12P]: 0.291
KNASRNLSSEFAN [K4S]: 0.392
KNAFRNLSSEFAN [K4F]: 0.223
KCAKRNLSSEFAN [N2C]: 0.611
KNAKRSLSSEFAN [N6S]: 0.366
KNAKLNLSSEFAN [R5L]: 0.0577
KNAKINLSSEFAN [R5I]: 0.0464
KNAKRNLSSEFRN [A12R]: 0.649
KTAKRNLSSEFAN [N2T]: 0.917
KNAKRNLPSEFAN [S8P]: 0.326
KNAKRDLSSEFAN [N6D]: -0.134
KNAKRFLSSEFAN [N6F]: 0.26
KNACRNLSSEFAN [K4C]: 0.458
KNAKRNLSSEHAN [F11H]: 0.612
KNTKRNLSSEFAN [A3T]: 0.894
KNAERNLSSEFAN [K4E]: -0.311
KSAKRNLSSEFAN [N2S]: 0.584
KNAKRNLSSKFAN [E10K]: 0.486
KNAKRNLDSEFAN [S8D]: 0.405
KNAKRNLSSEMAN [F11M]: 0.94
KNAKRNTSSEFAN [L7T]: 0.121

Study 4 — method: competition protein-binding microarray; form: double-stranded DNA, one strand shown; medium: in vitro; concentration: 2 µM; added: Cbf1 competitor, 0.05 µM; direction: higher = stronger binding; endpoint: fluorescence intensity
Target: Phosphate system positive regulatory protein PHO4, full length, GST-tagged (PHO4, Saccharomyces cerevisiae, UniProt P07270, residues 1-312)
Setting: whole 60-bp probe, lowest competitor level
Construct (chain): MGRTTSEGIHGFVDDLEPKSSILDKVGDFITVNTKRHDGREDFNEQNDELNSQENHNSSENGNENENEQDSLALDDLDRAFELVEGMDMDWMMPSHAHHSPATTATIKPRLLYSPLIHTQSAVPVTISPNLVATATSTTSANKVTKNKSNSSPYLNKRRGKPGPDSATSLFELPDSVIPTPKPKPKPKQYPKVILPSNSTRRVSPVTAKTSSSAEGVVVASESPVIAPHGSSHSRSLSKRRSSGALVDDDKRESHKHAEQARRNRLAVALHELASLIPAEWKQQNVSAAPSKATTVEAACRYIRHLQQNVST
ATACATTTCTCAGGACACGTACTGAGAATATTGTTGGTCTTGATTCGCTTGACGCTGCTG: 7780 a.u.
CGCAGTCGCAACCAACATGTGACGGATGCGAGCGAAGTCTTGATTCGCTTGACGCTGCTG: 8370 a.u.
TAGAGGTGCCATTGTCATGTTCAGATCCAAAGAAGGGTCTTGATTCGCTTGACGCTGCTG: 3890 a.u.
TGCGCAACAACTTGTCACGCCACTTTATGTCTAGAAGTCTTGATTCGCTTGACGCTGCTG: 4930 a.u.
CTTTCCCGATCTTGCGGCGTGGGTGTAGCACATTTGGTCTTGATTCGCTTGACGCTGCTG: 9440 a.u.
TGGAACAAGGTGTTCCAGGTGACAAAGTTGGTTTCAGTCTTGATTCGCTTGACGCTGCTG: 3150 a.u.
TGCGTTCTATGCGAAAACGTGCTAATTTAATATATAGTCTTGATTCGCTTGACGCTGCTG: 12100 a.u.
TATTCACAGAGTTCTCATGTGACAGGTATTGATGATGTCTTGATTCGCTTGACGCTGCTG: 7270 a.u.
CATACCCAACCTTGGGATGTGGGTGAAGATATTTGTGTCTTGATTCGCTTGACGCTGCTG: 4540 a.u.
GAGGTTCGGTTTTGTCATGTGTGCTTTTATACGGCAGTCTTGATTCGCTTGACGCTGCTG: 7980 a.u.
CCTCCTATGCTGCGTCTCGTGGGTACTATGGCGTCGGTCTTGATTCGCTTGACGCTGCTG: 9200 a.u.
TCTCAATCTCCGTCCAATGTGACGCCCACTACGATTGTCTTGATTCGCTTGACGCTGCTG: 3740 a.u.
CTTTCCCGATCTTGTCACAAGACTTTAGCACATTTGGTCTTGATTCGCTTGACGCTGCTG: 4620 a.u.
AAAGCGGTAATTTGCTCCGTGGGTGCAGATATCTATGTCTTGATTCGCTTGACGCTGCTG: 5280 a.u.
CCAATTGCAAAATATCACCTGGGACGACTTCGTTGGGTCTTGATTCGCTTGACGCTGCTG: 3640 a.u.
TTGATTCAAGCTCCACACGTGAGTCGAATGAACCTGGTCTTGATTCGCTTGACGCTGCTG: 15400 a.u.
CGTCCTAGTGATTGCGCTGTGGGTGCCATGAGGAAGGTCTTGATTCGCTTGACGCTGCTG: 6140 a.u.
CGGGGTTAAGTTTGTATTGTGGGTGGCTTGCAGCAGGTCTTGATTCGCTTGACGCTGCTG: 4360 a.u.
TTATTCCGCCGATTCCACGGGTGCGGTGCTACCAAGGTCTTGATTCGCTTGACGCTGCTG: 5970 a.u.

Study 5 — target: CRIPT, C-terminal peptide; method: DHFR complementation, deep sequencing; medium: yeast; relative to: wild type; direction: higher = weaker binding; endpoint: binding free energy change
Setting: single substitutions, model-inferred values
Starting sequence: ERBIN, PDZ domain 1 (human); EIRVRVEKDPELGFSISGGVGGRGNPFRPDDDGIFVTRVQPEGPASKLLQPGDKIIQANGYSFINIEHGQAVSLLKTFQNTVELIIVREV; partner TKNYKQTSV
V90R: 0.0829 kcal/mol
T77G: -0.201 kcal/mol
N65H: -0.0286 kcal/mol
I16L: 0.0738 kcal/mol
R23F: -0.494 kcal/mol
L84R: 2.02 kcal/mol
L84T: 0.894 kcal/mol
E67Y: 0.308 kcal/mol
V87D: 0.0284 kcal/mol
G52E: 0.309 kcal/mol
L84W: 1.19 kcal/mol
E42N: 0.0803 kcal/mol
P10I: -0.5 kcal/mol
H68D: 1.29 kcal/mol
N80Q: 0.027 kcal/mol
K8C: 0.945 kcal/mol
D53S: 0.666 kcal/mol
F14V: -0.903 kcal/mol
I56D: -0.255 kcal/mol
G13Q: 0.692 kcal/mol
V72Q: 1.47 kcal/mol
L84G: 0.949 kcal/mol
S46Y: 0.0204 kcal/mol
E89I: 0.00672 kcal/mol

Other studies, line by line
PhoQ, residues 284 288 289 292 302 303 TAVSDG — fold induction (PhoP, residues 12 14 15 18 19 LWHSL (Escherichia coli, UniProt P23836); Sort-seq, refers to: YFP reporter; E. coli; PhoQ-PhoP variant library, added: 10 µM Mg2+; relative to: high Mg2+ state, higher = stronger signaling): 5.35 and 5.26

A few entries again (study 5):
N65H: -0.0286 kcal/mol
V72Q: 1.47 kcal/mol
E67Y: 0.308 kcal/mol
H68D: 1.29 kcal/mol
E42N: 0.0803 kcal/mol
T77G: -0.201 kcal/mol
N80Q: 0.027 kcal/mol
L84R: 2.02 kcal/mol
L84G: 0.949 kcal/mol
I16L: 0.0738 kcal/mol
V87D: 0.0284 kcal/mol
L84W: 1.19 kcal/mol
